Experimental data gathered from unrelated publications.
Lines come from different studies, so protocols differ. “And” joins repeats or separate records; there may be more than shown.
MAPK14: Mitogen-activated protein kinase 14 (MAPK14, Homo sapiens, UniProt Q16539)

C#CCOC(=O)[C@]1(C)C=C(C(=O)OC(C)(C)C)C(=O)CC1 gave an initial slope of 8430 and 9600 and 8780 (MAPK14; kinase activity, D-site sensor).
The remaining binding of CN1CCN(Cc2ccc(NC(=O)c3cccc(C#Cc4cnc(N)c5ncccc45)c3)cc2C(F)(F)F)CC1 is reported as 33% (MAPK14; cell-free assay, competition with immobilised ligand; 50 nM).
CCN1CCN(Cc2ccc(C(=O)Nc3ccc(C)c(NCc4cnc5[nH]ccc5c4OC)c3)cc2C(F)(F)F)CC1 gave a remaining binding of 0.9% (MAPK14; binding, competition with immobilised ligand; 1 µM).
For C=C1CC2(C(=O)OC)C=C(C(=O)OC(C)(C)C)C(=O)C1C2 (stereo not shown), “luminescence relative to control” read 0.489 (Mitogen-activated protein kinase 14, with MKK6 (MAPK14, Homo sapiens, UniProt Q16539); protein-protein interaction, NanoBiT, measured: MKK6-p38α binding; HEK293T; 10 µM; relative to: DMSO control).
Cc1cccc(O[C@H]2CCC[C@@H](C(C)CNCc3ccncc3)C2)c1 (relative stereo) gave an inhibition of -5% (MAPK14; kinase activity, kinome panel screening; 10 µM).
With Nc1ncc2c(n1)-c1c([nH]c3ccc(C4=CCOCC4)cc13)CCC2 the remaining binding was 100% (MAPK14; binding, competition with immobilised ligand; 1 µM).
For COCC12C(=O)NC3C4(C(OC)CC1O)C1CC5(O)C(OC)C(O)C(OC(C)=O)(C1C5OC(=O)c1ccccc1)C3(O)C(OC)C24 (stereo not shown), the remaining activity was 87% and 100% (MAPK14; kinase activity, inhibitor, ProQinase kinase profiling; 25 µM; relative to: control).
The remaining activity of O=C=[N][Ru-4]123([n]4c5ccc(O)cc5c5c6c(c7cc(F)c[n+]1c7c54)C(=O)NC6=O)[S+]1CC[S+]2CC[S+]3CC1 (stereo not shown) is reported as 111% (MAPK14; enzyme activity; 100 nM, human enzyme, added: 10 µM ATP; relative to: untreated).
CN1CCN(Cc2ccc(-c3ccc(CO[C@H]4CCC[C@@H]4NC(=O)c4cc(-c5cnn(C)c5)cnc4N)cc3)cc2)CC1 gave an inhibition of 3% and 10% (MAPK14; enzyme activity, inhibitor; 0.1 µM).
With c1ccc2c(Nc3cc(C4CCC4)[nH]n3)nc(Nc3ccc4nc[nH]c4c3)nc2c1 the remaining activity was 98% (MAPK14; enzyme activity, inhibitor; 0.25 µM).
COc1ccc(C(=O)/C=C/c2ccccc2-c2c[nH]c3ccc(C#N)cc23)c(O)c1 has an inhibition of 4% (MAPK14; enzyme activity, inhibitor; 20 µM).
With COc1cc(Nc2nc(C)cc(-c3cnn4nc(OC)ccc34)n2)cc(C(F)(F)F)c1 the remaining binding was 87% (MAPK14; KINOMEscan; 1 µM, p38-alpha; relative to: DMSO).
For COC(=O)[C@@]1(C)C=C(C(=O)Nc2cccc(C(=O)Nc3ccc(Nc4nccc(-c5cccnc5)n4)c(C)c3)c2)C(=O)CC1, the remaining activity was 0.212 and 0.214 and 0.228 (MAPK14; enzyme activity, inhibitor; 133.3 µM, unit not given; relative to: vehicle).
For C[C@H](c1ccccc1)N1C(=O)C2=Nc3cccc(Cl)c3CN2C1=S, the inhibition was at least 85% (MAPK14; enzyme activity, inhibitor; 1.5 µM).
The remaining activity of Cc1cccc(-c2ccc3nc(NC(=O)C4CCCO4)nn3c2)c1 (stereo not shown) is reported as 104% (MAPK14; enzyme activity, Dundee kinase panel; 10 µM).
C=CC(=O)N1CCc2ccc(-n3c(=O)ccc4cnc5ccc(-c6cnn(C)c6)cc5c43)cc21 gave a remaining binding of 100% (MAPK14; KINOMEscan; 1 µM; relative to: DMSO control).
NC(=O)[C@@H](O)C[C@H]1CCc2sc3ncnc(O[C@H]4CC[C@H](N5CCOCC5)CC4)c3c21 gave an inhibition of 0% (MAPK14; enzyme activity, inhibitor; 10 µM).
CNS(=O)(=O)Nc1nccc(Cc2c(C)c3ccc(Oc4ncccc4F)cc3oc2=O)c1F gave a remaining binding of 69% (MAPK14; binding, competition with immobilised ligand; 10 µM).
COC(=O)[C@@]1(Cc2ccccc2)C=C(C(=O)OC(C)(C)C)C(=O)CC1 gave a fraction bound of 0.248 (MAPK14 (Homo sapiens, UniProt Q16539, C162A); peptide binding, fluorescence polarization; 250 µM).
The remaining binding of COc1ccc(NC(=O)Nc2ccc3c(c2)C(=O)N(C(C)CO)CC(C)C(CN(C)Cc2ccc4c(c2)OCO4)O3)cc1 (stereo not shown) is reported as 93% (MAPK14; binding, competition with immobilised ligand; 10 µM).
For C=CC(=O)N1CCCC(n2c(=O)c3ncccc3n(Cc3ccc(Oc4ccccc4)cc3)c2=O)C1 (stereo not shown), the remaining binding was 95% (MAPK14; cell-free assay, competition with immobilised ligand; 1 µM).
Cc1cccc(-c2ccc3nc(NC(=O)C4CCOCC4)nn3c2)c1 gave a remaining activity of 95% (MAPK14; enzyme activity, Dundee kinase panel; 10 µM).
For CS(=O)(=O)Nc1cccc(-c2csc3cnc(Nc4ccc(N5CCN(CCCCCOc6cccc7c6C(=O)N(C6CCC(=O)NC6=O)C7=O)CC5)cc4)nc23)c1 (stereo not shown), the inhibition was -14.3% (MAPK14; kinase probe labelling, binder, KiNativ ATP-acylphosphate LC-MS; MOLT-4 live cells; 1 µM).
The remaining activity of COc1c(OCCCN2CCOCC2)ccc2c1N=C(NC(=O)c1cnc(N)nc1)N1CCN=C21 is reported as 130% (MAPK14; kinase activity, inhibitor; 1 µM; relative to: untreated control).
With COc1c(Cl)cccc1Nc1c(-c2ccncc2C#C[C@@]2(C)CCCN2C(=O)/C=C/CN(C)C)[nH]c2c1C(=O)NCC2 the remaining binding was 0.7% (MAPK14; binding, competition with immobilised ligand; 3 µM).
COc1ccc(O)cc1-c1c[nH]c2ncc(-c3cncc(C(=O)N(C)C)c3)cc12 gave an inhibition of -1.93% (MAPK14; binding, competition with immobilised ligand; 0.2 µM).
C=CC(=O)Nc1cccc(-c2cnc3[nH]cc(C(=O)NC(C)(C)C)c3n2)c1 has an inhibition of 5% (MAPK14; enzyme activity, inhibitor; 0.1 µM).
C=C1CCCCCCCCCC(CO)C1=O (stereo not shown) gave a remaining binding of 100% (MAPK14; cell-free assay, competition with immobilised ligand; 10 µM).

For quick reference, copied from above:
C=CC(=O)N1CCc2ccc(-n3c(=O)ccc4cnc5ccc(-c6cnn(C)c6)cc5c43)cc21 gave a remaining binding of 100% (MAPK14; KINOMEscan; 1 µM; relative to: DMSO control).
NC(=O)[C@@H](O)C[C@H]1CCc2sc3ncnc(O[C@H]4CC[C@H](N5CCOCC5)CC4)c3c21 gave an inhibition of 0% (MAPK14; enzyme activity, inhibitor; 10 µM).
CNS(=O)(=O)Nc1nccc(Cc2c(C)c3ccc(Oc4ncccc4F)cc3oc2=O)c1F gave a remaining binding of 69% (MAPK14; binding, competition with immobilised ligand; 10 µM).
COC(=O)[C@@]1(Cc2ccccc2)C=C(C(=O)OC(C)(C)C)C(=O)CC1 gave a fraction bound of 0.248 (MAPK14 (Homo sapiens, UniProt Q16539, C162A); peptide binding, fluorescence polarization; 250 µM).
